# Measured values pooled from the literature.
# Every numbered part comes from another study and shows a few of its results, in no order.

# Series 1 — technique: protein binding microarray; form: double-stranded DNA, one strand shown; medium: in vitro; concentration: not given; reference: not given; reading: higher = stronger binding
# Target: Histone acetyltransferase KAT6A, winged helix 2, GST fusion (KAT6A, Homo sapiens, UniProt Q92794, residues 85-181)
# Setting: 8-mer, flanks averaged, mean of 2 arrays, mostly near background
# Construct (chain): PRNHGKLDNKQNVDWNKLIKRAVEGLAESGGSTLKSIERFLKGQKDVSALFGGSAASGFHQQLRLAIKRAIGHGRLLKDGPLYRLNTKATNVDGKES
Strand,E-score
GAATCAAA,0.0347
ATCCGGCA,0.136
AACTGGTG,-0.0728
AATCTTGC,0.126
AATTTACT,-0.0798
ATAATTTG,0.00814
AACGCGTT,-0.0181
GAAGGCTC,-0.114
GTACCTGA,0.102
CGCGGGGA,0.245
ATTATTCA,0.0941
AGTGCATA,-0.0174
CCAATATA,-0.122
AACTCCTT,-0.157
CAATCATG,0.098
TCTGACAA,0.112
GCATGCCC,0.103
GGCATTAA,-0.00146
CACCTTCG,0.058
ATTAAACC,-0.000605
CGGACTAC,-0.163
AAACACAA,-0.00787
GCGCGTCA,0.00309
CCACTGAA,0.0395
GTGCTCGA,-0.00604

# Series 2 — technique: protein-binding microarray; form: double-stranded DNA, one strand shown; medium: in vitro; concentration: 2540 nM top; setting: 60-bp whole probe; added: salmon DNA 0.4 mg/ml; reference: random background probes; reading: higher = stronger binding; all sequences stand within: GCCTAGCAC … GTCTTGATTCGCTTGACGCTGCTG
# Target: Interferon regulatory factor 3, full length, phosphomimetic (IRF3, Homo sapiens, UniProt Q14653, residues 1-427, S386D/S396D/S398D/S402D/T404D/S405D)
# Construct (chain): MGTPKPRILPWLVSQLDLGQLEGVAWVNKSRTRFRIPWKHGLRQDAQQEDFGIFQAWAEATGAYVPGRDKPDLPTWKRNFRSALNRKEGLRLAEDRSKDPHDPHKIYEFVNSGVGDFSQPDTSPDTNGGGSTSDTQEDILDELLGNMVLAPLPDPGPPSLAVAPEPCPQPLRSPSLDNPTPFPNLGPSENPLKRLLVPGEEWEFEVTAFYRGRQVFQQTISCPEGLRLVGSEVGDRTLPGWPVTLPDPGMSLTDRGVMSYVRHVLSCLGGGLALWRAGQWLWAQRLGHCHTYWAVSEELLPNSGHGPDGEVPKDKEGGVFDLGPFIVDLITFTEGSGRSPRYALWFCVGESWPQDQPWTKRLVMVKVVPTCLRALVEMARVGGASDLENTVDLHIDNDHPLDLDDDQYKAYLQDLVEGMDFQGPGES
Strand,fitted relative affinity
GATGGACTGGGGTTTCGGGACGTGCTA,0.371 z-score
TCATTTTCCTAATTGAAACTGTGCTAG,6.19 z-score
GACGGTATCCCACTGCTGACGTGCTAG,2.32 z-score
ATCATTTTCTCTGTTCTAGAGTGCTAG,2.13 z-score
TTAGGACGGGACACTGGGTTAGTGCTA,-0.827 z-score
GACGGACTGGGACGGGGGACGTGCTAG,-0.334 z-score
CACTTTCTTTACTTCACTCTGTGCTAG,3.37 z-score
CTTTATGTACTCTCTCCATGTGTGCTA,1.24 z-score
GTAGGTTCCCTTTTCCTTTAGTGCTAG,7.39 z-score
GACGGACTGGGGTTTCAGGACGTGCTA,-0.357 z-score
GACGGACTGCTTTTCCTAACGTGCTAG,0.29 z-score
AGACGAATCATATCAAAATTGTGCTAG,0.453 z-score
TTAGATATCGGGTTTTGATTAGTGCTA,0.364 z-score
TTAGATTTCGGGACTGGAGTAGTGCTA,1.18 z-score
GACGGACTGGACTATCGGGGCGTGCTA,-0.573 z-score
TTAGATTTCAGTTTCGACTAGTGCTAG,4.49 z-score
TTAGAACTGAGACTGGAGTAGTGCTAG,-0.557 z-score
GACGGACTCGACTTTCGGGACGTGCTA,0.326 z-score
TCCACTTTGACTTAAGAGGCGTGCTAG,0.387 z-score
CTTTCTTTACTTCACTCTCTGTGCTAG,5.56 z-score
TCAGTCCTCCTGACTGGGACTGTGCTA,-0.0899 z-score
TAGGCTCTGTGCTTTCCTGATGTGCTA,-0.464 z-score
TTGCCTTTTGCTTTACTGATGTGCTAG,4.6 z-score
GACGGTTTCAGTTCCGAGACGTGCTAG,6.02 z-score
GCCGATTTCAGACTGGAGACGTGCTAG,1.91 z-score

# Series 3 — technique: RNA Bind-n-Seq; form: RNA; medium: in vitro; concentration: 365 nM; reference: no-protein control; reading: higher = stronger binding
# Target: RNA binding protein fox-1 homolog 2, RRM domain, GST-SBP tag (RBFOX2, Homo sapiens, UniProt O43251-10, residues 100-194)
# Setting: natural RNA segment, single round, ends assumed
# All sequences stand within: GGGAGUUCUACAGUCCGACGAUC … UGGAAUUCUCGGGUGCCAA
# Residues (chain): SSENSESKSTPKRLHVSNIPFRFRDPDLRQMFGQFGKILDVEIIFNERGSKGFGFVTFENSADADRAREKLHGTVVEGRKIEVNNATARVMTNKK
Strand,RBNS enrichment (R)
AUAUAAUUGUUUCAGUCCUAUGGCAUGGUGAUAGCAUAUGUGUUCAGGUUUAUAGCUGUUGUGUUUAAAGAUUGAAAAAAGUGGAAAACAUCUUUGUACAUUUAAGUCUG,1.32
CUGGAAGACGUACGCAUACUCCAUCGAUGUUGUAUUUGCAGUGGCUGAGGAAUUCUUGUACGCAGUUUUCUUUGGCUUUACGAAGCCGAUUAAAAGACCGUGUGAAAUGA,0.608
ACCGCAGCCUGUCAGCCAACAUUGCCUUGCAUUUGUACCUUAUUGAUCUUUGCCCAUGGAAGUCUCAAAGAUCUUUCGUUGGUUGUUUCUCUGAGCUUUGUUACUGAAAU,1.92
UGGCCACGAGCCACCACUGCCUCCCGCUGCUGCCCACAGGUGGUGCCGCCAAUGGGCAGUGCCCUCAGGCCGAAGCCUCAAUCCCCCAUCUGAGCCAGGCCUAAUCCUCU,0.234
AAUUGAGACAUUUCUAGCAUUACUUAAUGACUUGCAUUGUGGUUUUUCUGCAAGCAACUUUAAUGACUUUUUUUAUACCACAUGGUCUCCCAGUUUCUAGAUGAAUGCAA,2.31
UCACAGUUGUUAAAGUCUGUUCCAAGGCAUCACCUUCCUUCUCUACCCAACAACCCUGUGUAACAACUAAAGUAGAAUUAUCUCUCAUUUGUUGUUGUUUUUCCUCAAAA,0.329
AGGAAAUCACCAGCUUUGGCAUCUGACCAACAAACAGUGAGUGGGAGACGUGAUUUCCGAUGCGCAUCUUCAGAGUCAAACACACCCUCCCUCGUGUACAACCAAAGAAC,0.4
AGAUUUCUCCACUUGCCUCAAGGCUGGGAACAAACUUCUGUUGGAAUUUUAAAUAGGAUUAUUUGCAUUUUAUAGCAUAGGCAUAAUUUUUUUAAUUUAAGAUUUUUAAG,0.663
AACCUGUGUUGUAUUUUUUCUGAGAUGUUUUGCUUUAAGAGAUACUUUUUGCUCAGUUUUUAUAUGCCAGAUACAGAGAAUUUGUAGCGGUUAUUUUUGUAUGAUCUAGU,1.29

# Series 4 — technique: RNA Bind-n-Seq; form: RNA; medium: in vitro; concentration: 200 nM; setting: whole 134-nt RNA, ends assumed; added: 150 mM LiCl; reference: input library; reading: higher = stronger binding; library: 7-deaza-guanosine replaces G
# Target: Fragile X messenger ribonucleoprotein 1, C-terminal low-complexity region (Fmr1, Mus musculus, UniProt P35922)
# All sequences stand within: GGGAGUUCUACAGUCCGACGAUC … UGGAAUUCUCGGGUGUCAAGG
Strand,log2 enrichment
UAACUUUAGAGGAGGAUCUGAUGGAUAUGGCAGUGGACGUGGAUUUGGGGACGGCUAUAAUGGGUAUGGAGGAGGACCUGGAGGUGGCAA,0.361
UAACUUUACAGGAGGAUCUGAUGGAUAUGGCAGUGGACGUGGAUUUGGGGAUGGCUAUAAUGGGUAUGGAGGAGGACCUGGAGGUGGCAA,0.477
GUCCUGUGCUACACAUCGUAUGUACCGAAUCGGGAAAGGGUUUUUGGGUUUUUUUGGGAAAGUAUUAUGUUACGCCGUUCGGAUCUGCAC,-1.96
UGCCAAAGUAUGGCAAGAAAUUGCUCCUGGAAAUACUGAUGCCACCCCAGUAACUCAUGGAACUGAAAGCUCUUGGCAUGAAAUAGCAGC,1.55
CUGUGCUACACAUCGUAUGUACCGAAUCGGGGAAAAAAAGGGAAAAAAAGGGGAAAAAAAGGAAAGUAUUAUGUUACGCCGUUCGGAUCU,0.304
GUCCUGUGCUACACAUCGUAUGUACCGAAUCGGGGCCCCCCGGCCCCCCGGCCCCCCGGAAAGUAUUAUGUUACGCCGUUCGGAUCUGCA,0.591
CACAGACAACACGCACCCACACAGACACAGAGGGAAGGGGUUGGGAUGGGGACAGGGAGCACAGCAGGGCGGGGUAGGACCCCAGCCCCU,0.844
CCUGUGCUACACAUCGUAUGUACCGAAUCGGGCCCCCCCGGCCCCCCCGGCCCCCCCGGGAAAGUAUUAUGUUACGCCGUUCGGAUCUGC,1.15
UCAAGUCCUGUGCUACACAUCGUAUGUACCGAAUCGGGGAAAGGAAAGGAAAGGAAAGUAUUAUGUUACGCCGUUCGGAUCUGCACUUCC,-0.488
CUGUGCUACACAUCGUAUGUACCGAAUCGGGGUUUGGGGUUUUUUUGGGGUUUUUUUGGGGAAAGUAUUAUGUUACGCCGUUCGGAUCUG,1.76
CUCAAGUCCUGUGCUACACAUCGUAUGUACCGAAUCGGUGGAAAAAAAGGAGGAAAGUAUUAUGUUACGCCGUUCGGAUCUGCACUUCCA,0.164

# For quick reference, copied from above (series 4):
Strand,log2 enrichment
UAACUUUAGAGGAGGAUCUGAUGGAUAUGGCAGUGGACGUGGAUUUGGGGACGGCUAUAAUGGGUAUGGAGGAGGACCUGGAGGUGGCAA,0.361
UAACUUUACAGGAGGAUCUGAUGGAUAUGGCAGUGGACGUGGAUUUGGGGAUGGCUAUAAUGGGUAUGGAGGAGGACCUGGAGGUGGCAA,0.477
UGCCAAAGUAUGGCAAGAAAUUGCUCCUGGAAAUACUGAUGCCACCCCAGUAACUCAUGGAACUGAAAGCUCUUGGCAUGAAAUAGCAGC,1.55
CUGUGCUACACAUCGUAUGUACCGAAUCGGGGUUUGGGGUUUUUUUGGGGUUUUUUUGGGGAAAGUAUUAUGUUACGCCGUUCGGAUCUG,1.76
UCAAGUCCUGUGCUACACAUCGUAUGUACCGAAUCGGGGAAAGGAAAGGAAAGGAAAGUAUUAUGUUACGCCGUUCGGAUCUGCACUUCC,-0.488
